Measured values collected from several papers.
Protocols differ between the studies behind these lines. ± marks the error that the study gave.
rep main protease: Replicase polyprotein 1ab, main protease (rep, Middle East respiratory syndrome-related coronavirus, UniProt K9N7C7)
rep macrodomain 1: Replicase polyprotein 1ab, macrodomain 1 (rep, Middle East respiratory syndrome-related coronavirus, UniProt K9N7C7)
rep papain-like protease: Replicase polyprotein 1ab, papain-like protease (rep, Middle East respiratory syndrome-related coronavirus, UniProt K9N7C7)

SMILES = CSCC[C@@H](C=O)NC(=O)[C@H](CC(C)C)NC(=O)[C@H](CC(C)C)NC(C)=O; target or system = rep main protease; test = enzyme activity, inhibitor; endpoint = IC50; value = 1.24 µM
SMILES = COC(=O)[C@H](C[C@@H]1CCNC1=O)NC(=O)[C@H](Cc1ccccc1)NC(=O)/C=C/c1ccc2c(c1)OCO2; target or system = rep main protease; test = enzyme activity, inhibitor; endpoint = IC50; value = > 25 µM
SMILES = O=C(c1cccc(Br)c1)N1CCC(c2ccn3ncc(C(=O)N4CCCCC4)c3c2)CC1; target or system = rep macrodomain 1; test = inhibitor; conditions = MERS-CoV; endpoint = IC50; value = 181 ± 14.4 µM
SMILES = CCC(C(=O)Nc1ccc(C)cc1)n1cccc2nc(SCc3ccc(F)cc3)nc1-2 (stereo not shown); target or system = rep papain-like protease; test = enzyme activity, inhibitor; endpoint = IC50; value = > 100 µM
SMILES = O=C[C@H](C[C@@H]1CCNC1=O)NC(=O)[C@H](Cc1ccccc1)NC(=O)/C=C/c1ccc(Cl)cc1F; target or system = rep main protease; test = enzyme activity, inhibitor; endpoint = IC50; value = 1.7 µM
SMILES = CCCCCCCCCCCCCCCC(=O)N[C@@H](CCC(=O)NCCOCCOCCC(=O)NCCOCCOCCC(=O)NCCCC[C@H](NC(=O)[C@H](CC(=O)O)NC(=O)[C@H](CC(C)C)NC(=O)[C@H](Cc1ccc(O)cc1)NC(=O)[C@H](CCCCN)NC(=O)[C@H](CO)NC(=O)[C@H](Cc1ccc(O)cc1)NC(=O)[C@H](CC(=O)O)NC(=O)[C@H](CO)NC(=O)[C@@H](NC(=O)[C@H](Cc1ccccc1)NC(=O)[C@@H](NC(=O)CNC(=O)[C@H](CCC(N)=O)NC(=O)[C@@H](CO)NC(=O)[C@@H](N)Cc1c[nH]cn1)[C@@H](C)O)[C@@H](C)O)C(=O)N[C@@H](CCCNC(=N)N)C(=O)N[C@@H](CCCNC(=N)N)C(=O)N[C@@H](C)C(=O)N[C@@H](CCC(N)=O)C(=O)N[C@@H](CC(=O)O)C(=O)N[C@@H](Cc1ccccc1)C(=O)N[C@H](C(=O)N[C@@H](CCC(N)=O)C(=O)N[C@@H](Cc1c[nH]c2ccccc12)C(=O)N[C@@H](CC(C)C)C(=O)N[C@@H](CC(C)C)C(=O)N[C@@H](CC(N)=O)C(=O)N[C@H](C(=O)NCC(=O)NCC(=O)N1CCC[C@H]1C(=O)N[C@@H](CO)C(=O)N[C@@H](CO)C(=O)NCC(=O)N[C@@H](C)C(=O)N1CCC[C@H]1C(=O)N1CCC[C@H]1C(=O)N1CCC[C@H]1C(=O)N[C@@H](CO)C(N)=O)[C@@H](C)O)C(C)C)C(=O)O; system = rhesus monkey, male, plasma; conditions = subcutaneous, 60 µg/kg, day 28, toxicokinetics, mean; endpoint = AUC(0-t); value = 369 ng·h/mL
SMILES = O=C[C@H](C[C@@H]1CCNC1=O)NC(=O)[C@H](Cc1ccccc1)NC(=O)/C=C/c1ccc2c(c1)OCO2; target or system = rep main protease; test = enzyme activity, inhibitor; endpoint = IC50; value = > 25 µM
SMILES = C=CC(=O)NC(CC(=C)C)C(=O)N1CC(C(=O)NC(CCSC)C(=O)NC)C(c2cccc(C(F)(F)F)c2)C1 (stereo not shown); target or system = rep main protease; test = enzyme activity, inhibitor; endpoint = IC50; value = > 100 µM
SMILES = CCC(C(=O)Nc1ccccc1)n1cccc2nc(SCc3ccc(F)cc3)nc1-2 (stereo not shown); target or system = rep papain-like protease; test = enzyme activity, inhibitor; endpoint = IC50; value = > 100 µM
SMILES = C=CC(=O)N1CCN(c2cc(-c3ccc(C4CCC4)cc3)ncc2C(=O)N[C@H](Cc2ccccc2)C(=O)NC)C(C)C1 (stereo partly shown); target or system = rep main protease; test = enzyme activity, inhibitor; endpoint = IC50; value = > 100 µM
SMILES = COc1cc(C(=O)N(CCC(=O)N2CCNCC2)Cc2cccc(Cl)c2)cc(OC)c1OC; target or system = rep macrodomain 1; test = inhibitor; conditions = MERS-CoV; endpoint = IC50; value = > 300 µM
SMILES = C=CC(=O)NC(CC(=C)C)C(=O)N1CC(C(=O)NC(Cc2ccco2)C(=O)NC)C(c2cccc(C(F)(F)F)c2)C1 (stereo not shown); target or system = rep main protease; test = enzyme activity, inhibitor; endpoint = IC50; value = > 100 µM
SMILES = CCC(C(=O)Nc1ccc(F)cc1)n1c(SCc2ccc(F)cc2)nc2ncccc21 (stereo not shown); target or system = rep papain-like protease; test = enzyme activity, inhibitor; endpoint = IC50; value = > 100 µM

A few entries again:
SMILES = O=C[C@H](C[C@@H]1CCNC1=O)NC(=O)[C@H](Cc1ccccc1)NC(=O)/C=C/c1ccc(Cl)cc1F; target or system = rep main protease; test = enzyme activity, inhibitor; endpoint = IC50; value = 1.7 µM
SMILES = CCCCCCCCCCCCCCCC(=O)N[C@@H](CCC(=O)NCCOCCOCCC(=O)NCCOCCOCCC(=O)NCCCC[C@H](NC(=O)[C@H](CC(=O)O)NC(=O)[C@H](CC(C)C)NC(=O)[C@H](Cc1ccc(O)cc1)NC(=O)[C@H](CCCCN)NC(=O)[C@H](CO)NC(=O)[C@H](Cc1ccc(O)cc1)NC(=O)[C@H](CC(=O)O)NC(=O)[C@H](CO)NC(=O)[C@@H](NC(=O)[C@H](Cc1ccccc1)NC(=O)[C@@H](NC(=O)CNC(=O)[C@H](CCC(N)=O)NC(=O)[C@@H](CO)NC(=O)[C@@H](N)Cc1c[nH]cn1)[C@@H](C)O)[C@@H](C)O)C(=O)N[C@@H](CCCNC(=N)N)C(=O)N[C@@H](CCCNC(=N)N)C(=O)N[C@@H](C)C(=O)N[C@@H](CCC(N)=O)C(=O)N[C@@H](CC(=O)O)C(=O)N[C@@H](Cc1ccccc1)C(=O)N[C@H](C(=O)N[C@@H](CCC(N)=O)C(=O)N[C@@H](Cc1c[nH]c2ccccc12)C(=O)N[C@@H](CC(C)C)C(=O)N[C@@H](CC(C)C)C(=O)N[C@@H](CC(N)=O)C(=O)N[C@H](C(=O)NCC(=O)NCC(=O)N1CCC[C@H]1C(=O)N[C@@H](CO)C(=O)N[C@@H](CO)C(=O)NCC(=O)N[C@@H](C)C(=O)N1CCC[C@H]1C(=O)N1CCC[C@H]1C(=O)N1CCC[C@H]1C(=O)N[C@@H](CO)C(N)=O)[C@@H](C)O)C(C)C)C(=O)O; system = rhesus monkey, male, plasma; conditions = subcutaneous, 60 µg/kg, day 28, toxicokinetics, mean; endpoint = AUC(0-t); value = 369 ng·h/mL
